Measurements collected from several papers.
Several values in a cell are separate wells, animals, samples, runs or records. ± marks the error that the study gave.
HTR6: 5-hydroxytryptamine receptor 6 (HTR6, Homo sapiens, UniProt P50406)
NT5E membrane-bound form: 5'-nucleotidase, membrane-bound form (NT5E, Homo sapiens, UniProt P21589)
BAZ2B: Bromodomain adjacent to zinc finger domain protein 2B (BAZ2B, Homo sapiens, UniProt Q9UIF8)
CSNK1E: Casein kinase I isoform epsilon (CSNK1E, Homo sapiens, UniProt P49674)
ADORA2A: Adenosine receptor A2a (ADORA2A, Homo sapiens, UniProt P29274)

Structure (SMILES) | target | test | system | setting | scale | inhibition
O=C(NO)c1ccc(CN2CCCCc3ccccc32)c(F)c1 | HTR6 | radioligand binding, radioligand displacement | – | 10 µM | – | 16%
CCOC(=O)c1ccc(NC(=O)c2sc3nc(-c4ccccc4)cc(C(F)(F)F)c3c2N)cc1 | NT5E membrane-bound form | CD73 activity, inhibitor, malachite green phosphate | MDA-MB-231 | 100 µM, with: 200 µM AMP | – | 24 ± 1%
CN1CCN(c2cc(-c3ccncc3)c(-c3ccc4ccccc4c3)nn2)CC1 | Type-1 angiotensin II receptor (AGTR1, Homo sapiens, UniProt P30556) | antagonist, FLIPR | – | 10 µM | – | 9.8%
Cc1cccc(NC(=O)c2sc3nc(-c4ccccc4)cc(C(F)(F)F)c3c2N)n1 | NT5E membrane-bound form | CD73 activity, inhibitor, malachite green phosphate | MDA-MB-231 | 100 µM, with: 200 µM AMP | – | 20 ± 8%
CC(C)c1noc2ncc(C(=O)c3ccccc3O)cc12 | Sodium channel protein type 3 subunit alpha (Scn3a, Rattus norvegicus, UniProt P08104) | ion current, inhibitor, whole-cell patch clamp | – | 10 µM | – | 3.16% and 2.22% and 0.11% and 4.15% and 5.44%
COc1cc(-c2cc(C(C)=O)n3ccccc23)c(OC)cc1Cn1ccnc1 | BAZ2B | binding, inhibitor, AlphaScreen | – | 1 µM | – | -31.4%
COC(=O)c1ccc(-c2nc(-c3cccc(C)c3)c(-c3ccncc3)[nH]2)cc1 | CSNK1E | kinase activity | – | 1 µM | – | 43%
Cn1cc(-c2cnc3ccc(NC(=O)Nc4ccc(F)c(Br)c4)cc3n2)cn1 | Mitogen-activated protein kinase kinase kinase 3 (MAP3K3, Homo sapiens, UniProt Q99759) | kinase binding, KiNativ profiling, refers to: Lys1 peptide | PANC-1 lysate | 1.25 µM | – | 11.7%
COc1cccc(CNC(=O)C#Cc2cn(Cc3ccc(C(=O)O)cc3)c(=O)[nH]c2=O)c1 | Collagenase 3 (MMP13, Homo sapiens, UniProt P45452) | – | – | 6.5 µM | – | 100 ± 1%
C[C@H]1[C@H](OC(=O)CCC(=O)O)O[C@@H]2O[C@@]3(C)CC[C@H]4[C@H](C)CC[C@@H]1[C@@]24OO3 | Non-structural polyprotein pORF1, RNA-dependent RNA polymerase (Hepatitis E virus genotype 1, UniProt P33424) | polymerase activity, colorimetric | – | 39 µM | – | 38.9%
Cc1cc(-c2ccccc2)c(C#N)c(SCC(=O)Nc2nccs2)n1 | NT5E membrane-bound form | CD73 activity, inhibitor, malachite green phosphate | MDA-MB-231 | 100 µM, with: 200 µM AMP | – | 26 ± 8%
Cc1ccc(C(=O)Nc2nc3ccccc3[nH]2)cc1C | ADORA2A | – | – | 30 µM | – | 16 ± 4%
Cc1cc2c(cc1N1C(=O)c3cccc4c(CCCO)ccc(c34)C1=O)n(C)c(=O)n2C (racemic) | BAZ2B | binding, BROMOscan binding | – | 100 nM | – | 68%
COc1nc(NCc2cn(-c3ccc(C(=O)Nc4ccc(C(F)(F)F)cc4)cc3)nn2)nc(OC)n1 | Stromelysin-2 (Homo sapiens, UniProt P09238) | inhibitor | – | 0.1 µM | – | 13.1 ± 0.411%
CCN1/C(=C/C(C)=O)Sc2ccc(F)cc21 | Kappa-type opioid receptor (OPRK1, Homo sapiens, UniProt P41145) | – | – | 10 µM | – | 17.7%
COC(=O)c1ccc(NC(=O)CSc2nc(-c3ccccc3)cc(C(F)(F)F)c2C#N)cc1 | NT5E membrane-bound form | CD73 activity, inhibitor, malachite green phosphate | MDA-MB-231 | 100 µM, with: 200 µM AMP | – | -69 ± 16%
COc1cccc(OC[C@@H]2CN(CC(=O)N3CCc4ccccc43)CCO2)c1 | HTR6 | radioligand binding | – | concentration not given, with: [3H]LSD | – | 8.9%
COc1cccc(C(=O)Nc2nc3ccccc3[nH]2)c1 | ADORA2A | – | – | 30 µM | – | 10 ± 4%
Fc1ccc(-c2ncn(-c3ccccc3)c2-c2ccncc2)cc1 | CSNK1E | inhibitor | – | 1 µM | – | 49%
CNc1cc(Oc2cc(C(=O)Nc3cc(N4CCN(C)CC4)cc(C(F)(F)F)c3)ccc2C)ncn1 | STE20-like serine/threonine-protein kinase (SLK, Homo sapiens, UniProt Q9H2G2) | kinase activity | – | 1 µM | – | -12.8%
CC[C@@H]1[C@H](F)C(=O)N[C@@H]1COc1nccc2cc(C(N)=O)c(OC)cc12 | SNF-related serine/threonine-protein kinase (SNRK, Homo sapiens, UniProt Q9NRH2) | ATP-site probe binding, ActivX profiling | THP-1 cell lysate | 0.01 mM, Lys1 site | – | 0.6%
O=C(CN1CCO[C@H](COc2cccnc2)C1)N1CCc2ccccc21 | HTR6 | radioligand binding | – | concentration not given, with: [3H]LSD | – | 16.6%

Structure (SMILES) | target | test | system | setting | scale | inhibition
Cc1cc(C)c(C#N)c(SC=CC(=O)Nc2ccon2)n1 | NT5E membrane-bound form | CD73 activity, inhibitor, malachite green phosphate | MDA-MB-231 | 100 µM, with: 200 µM AMP | – | 16 ± 2%
COc1cc(Cl)c(C(=O)N[C@@H](CN[C@H]2CC[C@@H](N)CC2)Cc2ccc(C#N)cc2)cc1-c1ccc(CN[C@H](C)c2ccc(C)cc2)o1 | Histamine H2 receptor (HRH2, Homo sapiens, UniProt P25021) | agonist response, antagonist | human cells | 10 µM, H2 antagonist | – | -4%
Cc1ccc(C(=O)Nc2ccc3ccccc3c2)o1 | PACC1 (Homo sapiens, UniProt Q9H813) | ion current, whole-cell patch-clamp | – | 10 µM | – | 2.54%
CCOC(=O)C1=CCCC[C@H]1S(=O)(=O)Nc1ccc(F)cc1Cl | Toll-like receptor 4 (TLR4, Homo sapiens, UniProt O00206) | LPS binding, antagonist, ELISA | – | 1 µg/mL, with: LPS | relative to: DMSO control | 47.7% and 44.3% and 43.9% and 44.6%
Cc1nn(-c2nc3c(F)cc(F)cc3s2)c(O)c1C(c1cccc(C(F)(F)F)c1)c1c(C)nn(-c2nc3c(F)cc(F)cc3s2)c1O | Cyclic GMP-AMP synthase, catalytic domain; with DNA (CGAS, Homo sapiens, UniProt Q8N884) | cGAS phase separation, inhibitor | – | 50 µM | – | 95.6%
CCN(Cc1ccccc1C(F)(F)F)C(=O)C1CCN(S(=O)(=O)c2ccc3[nH]ncc3c2)CC1 | rat L-type calcium channel | radioligand binding | – | 10 µM, dihydropyridine site | – | 17%
O=C(CN1CCO[C@H](COc2cccc(Cl)c2)C1)N1CCc2ccccc21 | HTR6 | radioligand binding | – | concentration not given, with: [3H]LSD | – | 17.3%
CCc1cccc2c3c([nH]c12)C(CC)(CC(=O)O)OCC3 (stereo not shown) | Prostaglandin G/H synthase 2 (PTGS2, Homo sapiens, UniProt P35354) | – | – | 12.2 µg/mL | – | 97.7%
Fc1ccc(-c2ncn(-c3ccc4ccccc4c3)c2-c2ccncc2)cc1 | CSNK1E | inhibitor | – | 1 µM | – | 15%
O=C(Nc1cccc2c(=O)cc(-c3nnn[nH]3)oc12)c1ccc(OCCCCc2ccccc2)cc1 | Volume-regulated anion channel subunit LRRC8C, part LRRC8A IL1 chimera (LRRC8C, Homo sapiens, UniProt Q8TDW0, Y126F) | ion current, inhibitor, whole-cell patch clamp | HCT LRRC8-/- cells | 10 µM, +100 mV | – | 95.7% and 90.2% and 88.8% and 92.8%
Cc1ncccc1OC[C@H]1CN(CCN2CCc3ccccc32)CCO1 | HTR6 | radioligand binding | – | concentration not given, with: [3H]LSD | – | 10.7%
O=C1NC(=O)C2(N1)c1ccccc1-c1ccccc12 | GABA-A receptor alpha-1/beta-3 (GABRA1/GABRB3, Homo sapiens, UniProt P14867+P28472) | – | – | concentration not given, α1β3 receptor | – | 36%
CC/C(=N\NC(=O)NCc1cccc(O)c1)c1ccc(O)c(C)c1O | Mitotic checkpoint serine/threonine-protein kinase BUB1, with BUB3 (BUB1, Homo sapiens, UniProt O43683) | kinase activity | – | 0.1 µM | – | -2.5%
Cc1cc(C(F)(F)F)c2c(N)c(C(=O)NCc3ccccc3)sc2n1 | NT5E membrane-bound form | CD73 activity, inhibitor, malachite green phosphate | MDA-MB-231 | 100 µM, with: 200 µM AMP | – | 22 ± 7%
O=C1c2ccccc2CCN1CCCCN1CCN(c2cccc(Cl)c2Cl)CC1 | HTR6 | radioligand binding | – | concentration not given, with: [3H]LSD | – | 89.8%
COC(=O)Oc1cc(OC)cc2c1C(=O)O[C@@H](C)C/C=C/C(=O)[C@@H](OC(=O)OC)[C@@H](OC(=O)OC)C[C@H]1O[C@H]21 | Mitogen-activated protein kinase kinase kinase 7, with TAB1 (MAP3K7, Homo sapiens, UniProt O43318) | kinase activity, Kinase-Glo luminescence | – | concentration not given | – | inactive
COCCOCCOCCNC(=O)c1sc2nc(C)cc(C)c2c1N | NT5E membrane-bound form | CD73 activity, inhibitor, malachite green phosphate | MDA-MB-231 | 100 µM, with: 200 µM AMP | – | -3 ± 7%
NC/C(=C\F)COc1cccc(Cn2c(=S)[nH]c(=O)c3[nH]cnc32)c1 | Myeloperoxidase (MPO, Homo sapiens, UniProt P05164) | enzyme activity | – | 0.0041 µM | – | 28%
Cc1cc(-c2ccccc2)nc2sc(C(=O)Nc3nccs3)c(N)c12 | NT5E membrane-bound form | CD73 activity, inhibitor, malachite green phosphate | MDA-MB-231 | 100 µM, with: 200 µM AMP | – | 8 ± 3%
O=C1c2ccccc2CCCN1CCCCN1CCN(c2ccccn2)CC1 | HTR6 | radioligand binding | – | concentration not given, with: [3H]LSD | – | 18.9%
NS(=O)(=O)CCNC(=S)NCCCC[C@H](NS(=O)(=O)c1cccc(F)c1)C(=O)N[C@@H](Cc1c[nH]c2ccccc12)C(=O)NC1CCC1 | NAD-dependent protein deacylase sirtuin-5, mitochondrial (SIRT5, Homo sapiens, UniProt Q9NXA8) | enzyme activity, inhibitor | – | 100 µM | – | < 0%

A few entries again:
Structure (SMILES) | target | test | system | setting | scale | inhibition
Cc1cc(-c2ccccc2)nc2sc(C(=O)Nc3nccs3)c(N)c12 | NT5E membrane-bound form | CD73 activity, inhibitor, malachite green phosphate | MDA-MB-231 | 100 µM, with: 200 µM AMP | – | 8 ± 3%
CCN1/C(=C/C(C)=O)Sc2ccc(F)cc21 | Kappa-type opioid receptor (OPRK1, Homo sapiens, UniProt P41145) | – | – | 10 µM | – | 17.7%
O=C(CN1CCO[C@H](COc2cccnc2)C1)N1CCc2ccccc21 | HTR6 | radioligand binding | – | concentration not given, with: [3H]LSD | – | 16.6%
Cc1cc2c(cc1N1C(=O)c3cccc4c(CCCO)ccc(c34)C1=O)n(C)c(=O)n2C (racemic) | BAZ2B | binding, BROMOscan binding | – | 100 nM | – | 68%
CCc1cccc2c3c([nH]c12)C(CC)(CC(=O)O)OCC3 (stereo not shown) | Prostaglandin G/H synthase 2 (PTGS2, Homo sapiens, UniProt P35354) | – | – | 12.2 µg/mL | – | 97.7%
